Published values from different studies.
Each line is one published result; not all experiments were run side by side. Values after ≈ are worked out from the molar mass of the structure shown.

SMILES | target or system | assay | test system | setting | how to read | quantity | result
N=C(N)NCCCC(N)C(=O)NC[C@@H]1O[C@H](O[C@H]2[C@@H](O)[C@H](O[C@@H]3[C@@H](O)[C@H](NC(=O)C(N)CCCNC(=N)N)C[C@H](N)[C@H]3O[C@H]3O[C@H](CNC(=O)C(N)CCCNC(=N)N)[C@@H](O)[C@H](O)[C@H]3NC(=O)C(N)CCCNC(=N)N)O[C@@H]2CO)[C@H](NC(=O)C(N)CCCNC(=N)N)[C@@H](O)[C@@H]1O (stereo partly shown) | RNase P holoenzyme Escherichia coli |  |  | 37 °C, together with: 10 mM Mg2+ |  | IC50 | ~0.5 µM
CCCCCCCCC(=O)NCc1ccc(O)c(OC)c1 | mAb 2-LD2 | antibody binding, indirect competitive ELISA |  | together with: coating antigen hapten 2-OVA |  | IC50 | 1.7 ng/mL
CC(C)C[C@H](NC(=O)[C@H](CCCNC(=N)N)NC(=O)[C@@H](Cc1ccccc1)NC(=O)CN)C(=O)N[C@@H](CC(N)=O)C(=O)N[C@@H](CO)C(=O)N[C@@H](C)C(=O)N[C@@H](CO)C(=O)N[C@@H](CCCNC(=N)N)C(=O)N[C@H](C(=O)N[C@@H](C)C(=O)N[C@@H](Cc1c[nH]cn1)C(=O)NCC(=O)N[C@@H](Cc1ccc(O)cc1)C(N)=O)C(C)C | ATRP receptor 2 (Aplysia californica) | cAMP, agonist |  |  | reference: compound over all-L-ATRP | potency ratio | ~600 fold
CC[C@H](C)[C@H](NC(=O)[C@@H](NC(=O)[C@H](CC(=O)O)NC(C)=O)[C@@H](C)O)C(=O)N[C@@H](CCCNC(=N)N)C(=O)N[C@@H](CC(C)C)C(=O)N[C@@H](CC(C)C)C(=O)N[C@@H](Cc1ccccc1)C(=O)N[C@@H](CCC(N)=O)C(=O)N[C@@H](CC(C)C)C(=O)N[C@@H](CCSC)C(=O)N[C@@H](CCCNC(=N)N)C(=O)N1CCC[C@H]1C(=O)N1CCC[C@H]1C(=O)N[C@@H](CC(N)=O)C(=O)N[C@@H](CCSC)C(=O)N[C@H](C(=O)N1CCC[C@H]1C(=O)N[C@@H](C)C(=O)N[C@H](C(=O)N[C@@H](CC(N)=O)C(=O)N[C@@H](C)C(N)=O)C(C)C)[C@@H](C)O |  |  | PBMC CD4 T cells, HLA-DR1 placebo children | dose not given |  | antigen-experienced tetramer+ cells | 0 to 8%
C1CCN(CC23C4CCC5C4C4C(CCC42)C53)CC1 | Influenza A virus | viral replication | MDCK, H1N1 A/PR/8/34 |  |  | EC50 | > 100 µM
CCN(Cc1ccccc1)C(=O)CCc1nc(CN2CCN(C(=O)Cc3ccc(OC)c(OC)c3)CC2)no1 |  | mechanical withdrawal threshold, von Frey | mouse CCI model | 20 mg/kg, dosing from day 11 |  | onset day | 11 days
CC1CN1c1cc(O)c2nc(N)sc2c1 (stereo not shown) | MLL-ENL leukaemia patient cells |  | human | concentration not given, 10 days |  | colony formation | inactive
c1csc(CNC23C4CCC5C4C4C(CCC42)C53)c1 | Influenza A virus | viral replication | MDCK, H1N1 A/PR/8/34 |  |  | EC50 | < 10 µM
CC/C=C\C/C=C\C/C=C\C/C=C\C/C=C\C/C=C\CCC(=O)Nc1ccn(C2OC(CO)C(O)C2(F)F)c(=O)n1 (stereo not shown) | NCI-H226 | NCI60 screen |  |  |  | CC50 | 39.2 µM
C[C@]12CC[C@H](O)CC1=CC[C@@H]1[C@@H]2CC[C@]2(C)C(=O)CC[C@@H]12 | glucose-6-phosphate dehydrogenase (human) | inhibitor | HepG2 | 100 µM, 2 h |  | 6-phosphogluconate level | no effect
C1C2C1C1C3C4C5C6CC6C4C14CNCC54C23 (stereo not shown) | Influenza A virus | viral replication | MDCK, H3N2 A/HK/7/87 |  |  | EC50 | > 100 µM
COc1ccc(CCNc2cc(-c3ccccc3)nc3ncnn23)cc1 | Haemophilus influenzae | broth microdilution | H128 AcrA- |  |  | MIC | 64 µM (≈ 22.1 µg/mL)
CN(C)CCc1c[nH]c2ccc(Br)cc12 |  | qPCR, item: Arc, Egr-1, Egr-2, Egr-3 | mouse, prefrontal cortex | ip, 10 mg/kg, 30 min |  | mRNA level | increased
